Measurements pooled from the literature.
Several values in a cell are separate wells, animals, samples, runs or records. Numbers after ± are the reported error.
gag-pol integrase: Gag-Pol polyprotein, integrase (gag-pol, Human immunodeficiency virus type 1 group M subtype B, UniProt P04585)
SLC6A19: Sodium-dependent neutral amino acid transporter B(0)AT1 (SLC6A19, Homo sapiens, UniProt Q695T7)
Chain of UniProt P05164 (whole entry, looked up): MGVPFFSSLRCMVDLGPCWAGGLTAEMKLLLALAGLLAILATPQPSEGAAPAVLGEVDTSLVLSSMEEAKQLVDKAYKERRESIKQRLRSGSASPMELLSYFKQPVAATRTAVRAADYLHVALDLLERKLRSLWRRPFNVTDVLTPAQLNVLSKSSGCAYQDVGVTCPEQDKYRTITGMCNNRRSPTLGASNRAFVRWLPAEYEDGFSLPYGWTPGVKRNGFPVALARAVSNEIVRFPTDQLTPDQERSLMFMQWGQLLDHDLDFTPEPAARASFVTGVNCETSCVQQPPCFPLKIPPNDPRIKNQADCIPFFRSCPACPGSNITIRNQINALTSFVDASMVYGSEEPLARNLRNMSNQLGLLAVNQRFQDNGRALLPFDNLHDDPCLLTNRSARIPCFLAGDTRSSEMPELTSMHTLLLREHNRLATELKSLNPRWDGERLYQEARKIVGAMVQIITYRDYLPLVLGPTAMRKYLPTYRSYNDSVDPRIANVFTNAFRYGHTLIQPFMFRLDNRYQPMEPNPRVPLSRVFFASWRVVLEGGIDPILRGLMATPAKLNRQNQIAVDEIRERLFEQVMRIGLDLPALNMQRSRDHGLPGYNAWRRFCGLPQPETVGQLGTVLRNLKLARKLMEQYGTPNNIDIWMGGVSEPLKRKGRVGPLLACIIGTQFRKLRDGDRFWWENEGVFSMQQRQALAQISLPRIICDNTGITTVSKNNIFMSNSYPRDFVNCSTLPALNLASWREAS
Chain of UniProt O75582 (whole entry, looked up): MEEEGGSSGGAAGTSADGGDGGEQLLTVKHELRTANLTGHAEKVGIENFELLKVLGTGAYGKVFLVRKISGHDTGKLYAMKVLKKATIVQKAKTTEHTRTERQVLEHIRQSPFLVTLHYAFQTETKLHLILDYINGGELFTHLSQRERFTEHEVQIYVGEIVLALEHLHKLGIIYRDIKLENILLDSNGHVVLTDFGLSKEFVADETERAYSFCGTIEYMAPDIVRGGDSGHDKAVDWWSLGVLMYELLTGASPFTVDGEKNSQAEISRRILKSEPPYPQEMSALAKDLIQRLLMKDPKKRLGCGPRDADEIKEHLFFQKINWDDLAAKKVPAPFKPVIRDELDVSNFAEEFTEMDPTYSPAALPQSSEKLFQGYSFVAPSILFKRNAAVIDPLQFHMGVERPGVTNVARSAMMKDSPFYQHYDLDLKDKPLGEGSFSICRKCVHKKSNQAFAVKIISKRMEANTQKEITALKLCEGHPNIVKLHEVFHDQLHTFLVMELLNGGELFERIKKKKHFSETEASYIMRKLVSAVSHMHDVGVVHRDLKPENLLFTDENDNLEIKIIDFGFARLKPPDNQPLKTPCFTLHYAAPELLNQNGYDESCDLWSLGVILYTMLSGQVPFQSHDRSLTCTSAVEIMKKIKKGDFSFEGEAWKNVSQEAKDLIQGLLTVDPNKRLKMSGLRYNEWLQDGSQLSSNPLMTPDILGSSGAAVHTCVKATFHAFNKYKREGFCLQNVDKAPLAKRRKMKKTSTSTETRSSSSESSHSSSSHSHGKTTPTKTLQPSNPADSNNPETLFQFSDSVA
Chain of UniProt Q695T7 (whole entry, looked up): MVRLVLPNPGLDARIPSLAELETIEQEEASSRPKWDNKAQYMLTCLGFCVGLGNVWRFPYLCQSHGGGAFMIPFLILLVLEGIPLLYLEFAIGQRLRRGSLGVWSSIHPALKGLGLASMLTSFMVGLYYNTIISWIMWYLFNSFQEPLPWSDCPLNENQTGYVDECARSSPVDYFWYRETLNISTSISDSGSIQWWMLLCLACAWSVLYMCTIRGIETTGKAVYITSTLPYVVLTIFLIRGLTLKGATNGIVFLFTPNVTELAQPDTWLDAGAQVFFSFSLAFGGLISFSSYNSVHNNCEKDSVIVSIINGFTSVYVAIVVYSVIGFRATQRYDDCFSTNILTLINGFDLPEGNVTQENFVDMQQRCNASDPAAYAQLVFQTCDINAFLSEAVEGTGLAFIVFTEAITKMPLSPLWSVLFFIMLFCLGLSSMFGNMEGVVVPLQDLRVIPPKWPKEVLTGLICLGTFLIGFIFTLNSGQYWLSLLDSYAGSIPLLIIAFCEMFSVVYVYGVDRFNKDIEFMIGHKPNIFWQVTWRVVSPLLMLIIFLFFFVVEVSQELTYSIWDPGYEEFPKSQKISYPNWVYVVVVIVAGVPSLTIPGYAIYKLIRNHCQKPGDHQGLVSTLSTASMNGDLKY
Chain of UniProt P48067 (whole entry, looked up): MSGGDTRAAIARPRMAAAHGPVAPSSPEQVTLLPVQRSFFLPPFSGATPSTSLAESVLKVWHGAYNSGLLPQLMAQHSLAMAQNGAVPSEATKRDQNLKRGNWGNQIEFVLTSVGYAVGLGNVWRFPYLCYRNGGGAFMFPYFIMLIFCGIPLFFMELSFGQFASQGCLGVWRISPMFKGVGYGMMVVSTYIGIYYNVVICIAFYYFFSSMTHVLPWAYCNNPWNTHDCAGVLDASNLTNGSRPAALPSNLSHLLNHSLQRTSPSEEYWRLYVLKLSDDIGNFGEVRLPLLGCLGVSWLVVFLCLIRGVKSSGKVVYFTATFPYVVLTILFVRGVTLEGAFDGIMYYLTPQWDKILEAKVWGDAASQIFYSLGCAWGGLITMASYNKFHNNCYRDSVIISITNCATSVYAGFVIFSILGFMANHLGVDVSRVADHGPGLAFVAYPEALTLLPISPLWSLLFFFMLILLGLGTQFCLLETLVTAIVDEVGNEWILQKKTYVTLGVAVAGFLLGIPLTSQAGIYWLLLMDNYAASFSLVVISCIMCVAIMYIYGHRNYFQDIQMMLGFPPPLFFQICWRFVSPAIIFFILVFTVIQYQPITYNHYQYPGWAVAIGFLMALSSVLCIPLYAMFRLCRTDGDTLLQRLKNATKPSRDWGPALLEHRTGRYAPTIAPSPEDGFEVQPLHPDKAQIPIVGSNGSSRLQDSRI
Chain of UniProt P08631 (whole entry, looked up): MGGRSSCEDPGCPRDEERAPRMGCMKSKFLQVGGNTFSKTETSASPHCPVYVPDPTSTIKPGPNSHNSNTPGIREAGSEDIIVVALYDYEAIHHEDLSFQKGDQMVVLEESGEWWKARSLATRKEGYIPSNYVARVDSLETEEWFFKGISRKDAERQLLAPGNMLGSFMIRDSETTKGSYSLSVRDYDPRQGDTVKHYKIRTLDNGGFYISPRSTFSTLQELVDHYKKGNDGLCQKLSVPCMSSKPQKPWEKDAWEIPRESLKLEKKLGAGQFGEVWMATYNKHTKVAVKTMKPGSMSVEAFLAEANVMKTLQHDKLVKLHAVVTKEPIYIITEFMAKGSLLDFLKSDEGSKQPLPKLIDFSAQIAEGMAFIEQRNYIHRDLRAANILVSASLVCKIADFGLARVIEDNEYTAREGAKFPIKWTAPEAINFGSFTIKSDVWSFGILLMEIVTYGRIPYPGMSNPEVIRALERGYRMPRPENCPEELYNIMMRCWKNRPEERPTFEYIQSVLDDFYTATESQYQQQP
Chain of UniProt Q96GD4 (whole entry, looked up): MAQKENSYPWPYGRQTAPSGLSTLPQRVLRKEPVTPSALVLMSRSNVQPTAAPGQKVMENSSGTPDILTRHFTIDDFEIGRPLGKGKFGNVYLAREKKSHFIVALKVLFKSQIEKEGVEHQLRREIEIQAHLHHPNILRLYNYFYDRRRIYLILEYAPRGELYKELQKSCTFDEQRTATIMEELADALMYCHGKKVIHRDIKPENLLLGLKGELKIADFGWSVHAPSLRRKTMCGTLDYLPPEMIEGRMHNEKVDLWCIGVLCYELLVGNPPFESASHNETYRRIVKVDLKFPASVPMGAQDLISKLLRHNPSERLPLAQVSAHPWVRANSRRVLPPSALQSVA
Chain of UniProt Q9P0L2 (whole entry, looked up): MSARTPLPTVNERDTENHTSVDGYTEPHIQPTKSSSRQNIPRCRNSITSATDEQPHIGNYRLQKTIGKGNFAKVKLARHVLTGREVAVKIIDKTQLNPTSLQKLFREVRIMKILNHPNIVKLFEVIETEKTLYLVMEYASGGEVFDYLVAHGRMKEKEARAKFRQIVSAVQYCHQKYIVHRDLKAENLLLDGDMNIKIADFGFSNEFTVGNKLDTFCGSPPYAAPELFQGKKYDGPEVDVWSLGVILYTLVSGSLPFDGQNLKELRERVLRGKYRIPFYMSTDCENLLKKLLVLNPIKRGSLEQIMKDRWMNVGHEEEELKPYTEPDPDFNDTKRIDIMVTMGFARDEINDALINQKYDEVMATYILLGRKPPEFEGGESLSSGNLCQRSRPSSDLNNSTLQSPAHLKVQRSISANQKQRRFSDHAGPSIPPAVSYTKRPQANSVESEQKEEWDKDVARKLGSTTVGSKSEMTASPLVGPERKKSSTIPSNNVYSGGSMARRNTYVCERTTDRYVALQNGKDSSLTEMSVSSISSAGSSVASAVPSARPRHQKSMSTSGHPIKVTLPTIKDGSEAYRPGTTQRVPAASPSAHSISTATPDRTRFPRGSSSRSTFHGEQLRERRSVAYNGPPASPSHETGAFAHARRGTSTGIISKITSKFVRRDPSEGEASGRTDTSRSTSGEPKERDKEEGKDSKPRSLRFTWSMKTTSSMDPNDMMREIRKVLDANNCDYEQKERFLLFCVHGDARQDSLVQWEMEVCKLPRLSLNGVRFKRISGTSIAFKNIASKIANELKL
Chain of UniProt Q9BUB5 (whole entry, looked up): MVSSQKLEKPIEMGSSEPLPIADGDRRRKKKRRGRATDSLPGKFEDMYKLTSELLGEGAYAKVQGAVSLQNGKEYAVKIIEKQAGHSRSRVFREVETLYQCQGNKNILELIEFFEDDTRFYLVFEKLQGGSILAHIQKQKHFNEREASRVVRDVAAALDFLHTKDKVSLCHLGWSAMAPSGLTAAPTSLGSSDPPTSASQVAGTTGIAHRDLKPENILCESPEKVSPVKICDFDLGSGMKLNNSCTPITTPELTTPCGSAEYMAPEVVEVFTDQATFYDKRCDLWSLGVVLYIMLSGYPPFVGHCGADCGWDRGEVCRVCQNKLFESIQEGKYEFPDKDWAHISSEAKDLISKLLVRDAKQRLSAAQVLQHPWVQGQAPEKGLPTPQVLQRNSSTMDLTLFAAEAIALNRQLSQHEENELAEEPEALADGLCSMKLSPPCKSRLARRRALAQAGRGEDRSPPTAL

Cc1cccc(C)c1C(=O)OCC(=O)[C@H](CCCCN)NC(=O)[C@H](CCCNC(=N)N)NC(=O)OCc1ccccc1
remaining activity (Procathepsin L (Mus musculus, UniProt P06797); inhibitor; 10 µM, added: AMC fluorogenic substrate; relative to: untreated): 100%

COc1cc(F)ccc1-c1ncnc(Nc2cccc(C[S@](C)(=N)=O)c2)n1
remaining activity (Serine/threonine-protein kinase MARK1 (MARK1, Homo sapiens, UniProt Q9P0L2); kinase activity; 10 µM, added: 10 µM ATP): 93%

O=C1NC(=O)/C(=C/c2ccc(-c3ccc(F)cc3O)o2)S1
remaining activity (MAP kinase-interacting serine/threonine-protein kinase 1 (MKNK1, Homo sapiens, UniProt Q9BUB5); enzyme activity; 10 µM): 48%

COc1cc(-c2cncc3c2CN(C)Cc2cc(N4CCNCC4)ccc2-3)cc(OC)c1OC
remaining activity (MAP kinase-interacting serine/threonine-protein kinase 2 (MKNK2, Homo sapiens, UniProt Q9HBH9); kinase activity; 1 µM, human enzyme, added: ATP 10 µM; relative to: DMSO control): 100%

C[C@@H](Oc1ccc(S(C)(=O)=O)cc1C(=O)N1C[C@@H]2C[C@]2(c2cc(C(F)(F)F)on2)C1)C(F)(F)F
remaining activity (Sodium- and chloride-dependent glycine transporter 1 (SLC6A9, Homo sapiens, UniProt P48067); glycine uptake, inhibitor, [3H]glycine uptake; 0.005 µM, log concentration 5, added: [3H]glycine, 3.5 mg/mL methyl-β-cyclodextrin; relative to: no inhibitor): 3.49%

NC/C(=C\F)COc1cccc(Cn2c(=S)[nH]c(=O)c3[nH]cnc32)c1
remaining activity (Myeloperoxidase (MPO, Homo sapiens, UniProt P05164); enzyme activity, inhibitor, dilution jump; concentration not given; relative to: DMSO): 2.53% and 1.1% and 6.25%

O=C(O)c1ccc(Nc2ncc3c(n2)-c2ccc(Cl)cc2C(c2c(F)cccc2F)=NC3)cc1
remaining activity (MARK1(h); kinase activity; 1 µM): 106%

O=C(NC1CCC1)c1ccc2nc(-c3cccc(NS(=O)(=O)NCCN4CCCCC4)c3)cn2c1
remaining activity (Mitogen-activated protein kinase 12 (MAPK12, Homo sapiens, UniProt P53778); enzyme activity; 10 µM): 100%

COc1cc(Nc2ncc3c(n2)-c2ccc(Cl)cc2C(c2c(F)cccc2OC)=NC3)ccc1C(=O)O
remaining activity (PASK; kinase activity; 1 µM): 98%

CNc1ncc2c(/C=C/C(=O)N3CCC(OC)CC3)nn(Cc3cccc(C(F)(F)F)c3)c2n1
remaining activity (TGF-beta receptor type-2 (TGFBR2, Homo sapiens, UniProt P37173); kinase activity, inhibitor; 1 µM; relative to: untreated control): 87%

Cc1cc(Nc2cc(N3CCN(C)CC3)nc(Sc3ccc(NC(=O)C4CC4)cc3)n2)[nH]n1
remaining activity (Ribosomal protein S6 kinase alpha-5 (RPS6KA5, Homo sapiens, UniProt O75582); kinase activity, KinaseProfiler; 0.03 µM, species human; relative to: control): 95%

C[C@H]1[C@H](OC(=O)CCC(=O)O)O[C@@H]2O[C@@]3(C)CC[C@H]4[C@H](C)CC[C@@H]1[C@@]24OO3
remaining activity (Non-structural polyprotein pORF1, helicase domain (Hepatitis E virus genotype 1, UniProt P33424); ATPase activity, inhibitor, colorimetric; 19.5 µM, preincubation 30 min, added: ATP 50 µM; relative to: untreated): 62.5%

C=CC(=O)N1CCC[C@@H](n2nc(-c3ccc(Oc4ccccc4)cc3)c3c(N)ncnc32)C1
remaining activity (Aurora kinase B (AURKB, Homo sapiens, UniProt Q96GD4); 1 µM): 103%

COc1ccc(F)cc1C(=O)NCc1ccc(-c2nn([C@@H](C)C(F)(F)F)c(N)c2C(N)=O)cc1
remaining activity (Tyrosine-protein kinase HCK (HCK, Homo sapiens, UniProt P08631); kinase activity, inhibitor, HotSpot radiometric; 100 nM, added: ATP 10 µM): 85 ± 1%

Cn1cc(-c2ccc3c(c2)OCO3)c2ccc(Cl)nc21
remaining activity (gag-pol integrase; strand transfer; HIV-1; 10 µM): 46%

Cc1ccc(C[C@H](NC(=O)OC(C)(C)C)C(=O)NC/C=C/S(=O)(=O)c2ccccc2)cc1
remaining activity (Cathepsin B (CTSB, Homo sapiens, UniProt P07858); inhibitor; 5 µM, 60 min, added: Z-Arg-Arg-pNA; relative to: uninhibited control): 47%

Cn1cc(-c2ccccc2)c2ccc(-c3cc(C(F)(F)F)cc(C(F)(F)F)c3)nc21
remaining activity (gag-pol integrase; strand transfer; HIV-1; 10 µM): 63.6%

Cc1cc(Cl)cc(C)c1OCC(=O)NC(C)C
remaining activity (SLC6A19; FLIPR membrane potential; CHO-BC; concentration not given; relative to: 100 µM cinromide set to 0): 83.7%

Cc1ccc(-c2cn(C)c3nc(Cl)ccc23)cc1
remaining activity (gag-pol integrase; strand transfer; HIV-1; 10 µM): 59%

Cc1cc(OCC(=O)NC(C)C)cc(C)c1Cl
remaining activity (SLC6A19; FLIPR membrane potential; CHO-BC; concentration not given; relative to: 100 µM cinromide set to 0): 37.9%

COc1cc(N2CCN(C)CC2)ccc1Nc1nc(N)n(C(=S)NCc2c(Cl)cccc2Cl)n1
remaining activity (Ribosomal protein S6 kinase alpha-5, C-terminal kinase domain (RPS6KA5, Homo sapiens, UniProt O75582); enzyme activity; 10 µM; relative to: control): 25%

COc1ccc(Cn2cc(-c3ccsc3)c3ccc(-c4ccncc4)nc32)cc1
remaining activity (gag-pol integrase; strand transfer; HIV-1; 10 µM): 84.1%

For quick reference, copied from above:
COc1cc(N2CCN(C)CC2)ccc1Nc1nc(N)n(C(=S)NCc2c(Cl)cccc2Cl)n1
remaining activity (Ribosomal protein S6 kinase alpha-5, C-terminal kinase domain (RPS6KA5, Homo sapiens, UniProt O75582); enzyme activity; 10 µM; relative to: control): 25%

COc1ccc(Cn2cc(-c3ccsc3)c3ccc(-c4ccncc4)nc32)cc1
remaining activity (gag-pol integrase; strand transfer; HIV-1; 10 µM): 84.1%
